Measurements collected from several papers.
Lines come from different studies, so protocols differ. Numbers after ± are the reported error. ≈ marks a conversion by molar mass, not a printed value.
Chain of UniProt Q8NB78 (whole entry, looked up): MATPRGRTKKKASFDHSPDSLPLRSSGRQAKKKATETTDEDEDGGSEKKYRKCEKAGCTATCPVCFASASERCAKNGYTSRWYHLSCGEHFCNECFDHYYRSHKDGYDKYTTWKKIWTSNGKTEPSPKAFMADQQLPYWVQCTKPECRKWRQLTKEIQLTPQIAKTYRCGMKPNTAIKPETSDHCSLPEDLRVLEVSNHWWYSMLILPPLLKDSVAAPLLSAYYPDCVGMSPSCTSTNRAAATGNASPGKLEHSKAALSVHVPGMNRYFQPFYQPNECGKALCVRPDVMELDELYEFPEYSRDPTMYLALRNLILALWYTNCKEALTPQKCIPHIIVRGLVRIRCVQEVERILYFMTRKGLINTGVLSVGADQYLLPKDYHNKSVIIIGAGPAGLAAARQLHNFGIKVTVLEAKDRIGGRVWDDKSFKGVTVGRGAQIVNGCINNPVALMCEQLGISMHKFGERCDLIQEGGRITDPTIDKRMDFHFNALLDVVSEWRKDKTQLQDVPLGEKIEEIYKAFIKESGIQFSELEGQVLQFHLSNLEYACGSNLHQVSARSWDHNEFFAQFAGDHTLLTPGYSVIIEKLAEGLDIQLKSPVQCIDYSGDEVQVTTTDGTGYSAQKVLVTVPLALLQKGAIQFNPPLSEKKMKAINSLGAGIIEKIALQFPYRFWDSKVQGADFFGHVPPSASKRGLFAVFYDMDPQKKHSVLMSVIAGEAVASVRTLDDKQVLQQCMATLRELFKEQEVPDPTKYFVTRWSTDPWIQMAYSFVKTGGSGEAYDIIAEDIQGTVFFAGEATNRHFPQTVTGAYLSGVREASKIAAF

Compound | tested on | assay | test system | conditions | scale | quantity | value
N[C@H](CSC(F)(F)[18F])C(=O)O | C6 tumour model | – | male nude, tumour | intravenous, 3.7 MBq, 45 min, tumour-bearing | – | tracer uptake | 3.81 %ID/g
CC(=O)[CH](C(C)=O)[Pt-2]1([S+](C)C)[O]C(C)=CC(C)=[O+]1 (stereo not shown) | – | – | rat, blood | intravenous, 20 mg/kg, single dose | – | creatinine | 0.45 ± 0.06 mg/dL
CC(NC(=O)OC1OC(C(=O)O)C(O)C(O)C1O)c1cc(Cl)ccc1Cn1c(=S)[nH]c(=O)c2[nH]ccc21 (stereo not shown) | – | equilibrium dialysis | male beagle dog plasma | 16 h, pH 7.4 | – | recovery | > 84%
CC(C)c1cnc(-c2cc(Cl)ccc2F)cc1Nc1ccncc1C(=O)NC(CO)CO | – | item: any event, worst grade | human patients | oral, dose not given, grade 1 | – | patients with related SAE | 0%
NS(=O)(=O)Nc1ncnc(OCCOc2ncc(Br)cn2)c1-c1ccc(Br)cc1 | – | M6 formation | female Beagle dog, liver microsomes | 5 mg/kg daily for 4 weeks | – | Km | 6.2 ± 0.5 µM
CCN(CC)CCN=S(=O)(c1ccccc1)N1CCCCC1 (stereo not shown) | – | – | HCl buffer | 24 h, pH 1, hydrolytic stability | – | recovery | 100%
CCCC[C@H](NC(=O)CNC(=O)CNC(=O)CN1CCN(CC(=O)O)CCN(CC(=O)O)CC1)C(=O)N[C@H]1CC(=O)NCCCC[C@@H](C(N)=O)NC(=O)[C@H](Cc2c[nH]c3ccccc23)NC(=O)[C@H](CCCNC(=N)N)NC(=O)[C@@H](Cc2ccccc2)NC(=O)[C@H](Cc2c[nH]cn2)NC1=O [gallium-67 labelled] | – | – | C57 mice, female, B16/F1 melanoma, urine | intravenous, 0.037 MBq, 4 h | – | urinary excretion | 86.4 ± 3.94%
CCCCCCCC(=O)OC[C@H](NC(=O)[C@H](CO)NC(=O)CN)C(=O)N[C@@H](Cc1ccccc1)C(=O)N[C@@H](CC(C)C)C(=O)N[C@@H](CO)C(=O)N1CCC[C@H]1C(=O)N[C@@H](CCC(=O)O)C(=O)N[C@@H](Cc1cnc[nH]1)C(=O)N[C@@H](CCC(N)=O)C(=O)N[C@@H](CCCNC(=N)N)C(=O)N[C@H](C(=O)N[C@@H](CCC(N)=O)C(=O)N[C@@H](CCC(N)=O)C(=O)N[C@@H](CCCNC(=N)N)C(=O)N[C@@H](CCCCN)C(=O)N[C@@H](CCC(=O)O)C(=O)N[C@@H](CO)C(=O)N[C@@H](CCCCN)C(=O)N[C@@H](CCCCN)C(=O)N1CCC[C@H]1C(=O)N1CCC[C@H]1C(=O)N[C@@H](C)C(=O)N[C@@H](CCCCN)C(=O)N[C@@H](CC(C)C)C(=O)N[C@@H](CCC(N)=O)C(=O)N1CCC[C@H]1C(=O)N[C@@H](CCCNC(=N)N)C(=O)O)C(C)C | – | beat-to-beat plethysmography | human chronic HFrEF patients | intravenous infusion, 0.1 µg/kg/min, after 60 min infusion | – | blood pressure sBP | 99 ± 17.6 mm Hg
Oc1c(Br)cc(Br)c2nc3cc(Cc4ccccc4)ccc3nc12 | – | – | human red blood cells | 200 µM, 1 h, pH 7.2, 37 °C | – | hemolysis | ≤ 1%
CCCN(CC(=O)N(CCC)CC(=O)N(CCC)CC(=O)N(CCC)CC(=O)N(CC(=O)N(CCC)CC(=O)N(CCC)CC(=O)N(CCC)CC(=O)N(CCC)CC(=O)N(CC(N)=O)Cc1cn(CCCNC(=O)CCCOc2cccc(-c3nc4ccc(-c5nc6ccc(N7CCN(C)CC7)cc6[nH]5)cc4[nH]3)c2)nn1)Cc1cn(CCCNC(=O)CCCOc2cccc(-c3nc4ccc(-c5nc6ccc(N7CCN(C)CC7)cc6[nH]5)cc4[nH]3)c2)nn1)C(=O)CNCc1cn(CCCNC(=O)CCCOc2cccc(-c3nc4ccc(-c5nc6ccc(N7CCN(C)CC7)cc6[nH]5)cc4[nH]3)c2)nn1 | C2C12 | flow cytometry | – | 5 µM, 14 h | – | non-fluorescent cells | 46%
COc1ccc(CCCN[C@@H]2CCC[C@H]2CN[C@H]2CCC[C@@H]2CNCCCCN[C@H]2CCC[C@@H]2CN)cc1 | Lysine-specific histone demethylase 2 (KDM1B, Homo sapiens, UniProt Q8NB78) | enzyme activity, inhibitor | – | – | – | Ki | 18 µM
CCCC[C@@H]1NC(=O)[C@@H](NC(=O)[C@H](CCC(=O)O)NC(=O)CNC(=O)CN2CCN(CC(=O)O)CCN(CC(=O)O)CCN(CC(=O)O)CC2)CCCCNC(=O)C[C@@H](C(N)=O)NC(=O)[C@H](C(C)C)NC(=O)[C@@H]2CCCN2C(=O)[C@H](CCCNC(=N)N)NC(=O)CNC(=O)[C@H](Cc2c[nH]c3ccccc23)NC(=O)[C@H](CCCNC(=N)N)NC(=O)[C@@H](Cc2ccccc2)NC(=O)[C@H](Cc2c[nH]cn2)NC(=O)[C@H](CCC(=O)O)NC1=O [gallium-67 labelled] | – | – | B16/F1 melanoma-bearing C57 mice, urine | intravenous, 0.037 MBq, 2 h | – | urinary excretion | 81.9 ± 2.42%
C#CCO[C@H]1C[C@H]2[C@@H](C)C[C@H]3OC(=O)C(=C)[C@H]3C[C@]2(C)[C@H]1OCC#C | – | propidium iodide flow cytometry | primary splenocytes, BALB/c mouse | 48 h, 10% fetal calf serum | – | CC50 | 32 ± 8.9 µg/mL (≈ 93.4 µM)
Cc1ccc(N2Cc3cc(NC(=O)N4CCN(c5cccc(C(F)(F)F)c5)CC4)ccc3C2=O)cc1 | – | – | mouse C57BL/6, liver microsomes | 90 min | – | remaining parent compound | 84.8 ± 3.05%
O=C(Cc1ccccc1)Nc1nc2ccccc2n1Cc1ccccc1 | – | ultrafiltration | rat plasma | 30 min, 37 °C | – | fraction unbound | 39.6%
Cc1ccccc1/N=N/c1ccc(/N=N/c2c(O)ccc3ccccc23)c(C)c1 | – | – | rat whole blood QC samples | 5.0 µg/L, 8 h, room temperature, short-term stability | – | measured concentration | 5.29 µg/L
O=C(Cc1ccc(-c2ccc(OCCN3CCOCC3)cc2)cn1)NCc1ccc(F)cc1 | – | – | ICR mouse | intravenous, 2 mg/kg | – | clearance | 39.8 ± 5.33 mL/min/kg
NCC(=O)NCC(=O)NCC(=O)NCC(=O)NCC(=O)NCC(=O)NCCCC[C@H](NC(=O)[C@@H]1CCCN1C(=O)[C@@H]1CSSCCC(=O)N[C@@H](Cc2ccc(O)cc2)C(=O)N[C@@H](Cc2ccccc2)C(=O)N[C@@H](CCCC(N)=O)C(=O)N[C@@H](CC(N)=O)C(=O)N1)C(=O)NCC(N)=O | – | – | male Sprague Dawley rats | sc, single dose | – | NOAEL | 0.23 mg/kg
CN1CCC[C@]1(C)/C=C/S(=O)(=O)NC(=O)Nc1c2c(cc3c1CCC3)CCC2 | – | – | human, plasma | oral, 100 mg twice daily, day 1, multiple ascending dose | – | AUC(0-24) | 145000 ng·h/mL
COC(=O)C(c1ccccc1Cl)N1CCC(SCC(=O)c2cccc(OC)c2)C(=CC(=O)O)C1 (mixture of isomers) | – | HPLC-MS/MS | feline citrate plasma | 100 ng/mL, 12 h, 4 °C, storage stability | – | deviation from nominal | 0%

Compound | tested on | assay | test system | conditions | scale | quantity | value
O=[11C](OC(C(F)(F)F)C(F)(F)F)N1CCC(CNS(=O)(=O)c2ccc(Cl)cc2)CC1 | – | PET | rhesus monkey, male, occipital cortex | iv, 3.71 mCi | – | uptake | 0.93 SUV
CC(C)(Sc1ccncc1-c1ccc(C#N)c2ccccc12)C(=O)OC1OC(C(=O)O)C(O)C(O)C1O (stereo not shown) | – | – | adult men, urine | oral, 15 mg verinurad, moderate renal impairment | relative to: impaired over normal renal function | renal clearance ratio (0-72 h) | 40%
CC(C)CCCC(C)CCCC(C)CCO[C@@H]1O[C@H](CO)[C@@H](O[C@H]2O[C@H](CO)[C@@H](O)[C@H](O)[C@H]2O)[C@H](O)[C@H]1O (stereo partly shown) | – | dynamic surface tension | – | 0.0018 mmol/L | – | characteristic time t* | 753 s
O=C([O-])CN1CCN(CC(=O)[O-])CCN(CC(=O)NCCc2ccc3c(c2)C2C=CCC2C(c2cc4c(cc2Br)OCO4)N3)CCN(CC(=O)[O-])CC1.[111In+3] (stereo not shown) | – | – | mouse, Hec50 endometrial tumour, stomach | 4 h post injection | – | tissue uptake | 0.3 ± 0.08 %ID/g
C=C(c1ccc(C(=O)O)c(F)c1)c1cc2c(cc1C)C(C)(C)C=CC2(C)C | – | – | Sprague-Dawley rat, male | oral, 100 mg/kg, 2 h, sesame oil vehicle | – | blood triglycerides | 98 ± 18.2 mg/dL
Cc1cc(C(=O)N[C@@H](CO)CC(C)C)ccc1CO | – | LC-MS | human liver microsomes | 10 µM of parent drug, 60 min, pH 7.4, added: NADPH | relative to: parent drug at time zero | metabolite peak area | 0.8%
[64Cu+2].c1ccc(CNCc2ccc(CN3CCCN4CCNCCCN(CC4)CC3)cc2)nc1 | CXCR4 (human) | – | NOD/SCID mice, U87 xenografts, U87 control tumour | 120 min post-injection | – | tissue uptake | 2.13 ± 0.72 %ID/g
CC(C)[C@H](NC(=O)CNC(=O)[C@H](CCC(N)=O)NC(=O)[C@H](C)N)C(=O)O | – | – | human | 1 mg/kg single dose, LOQ 0.5 ng/mL | – | time to concentration below LOQ | 15 min
COC(=O)/C=C/C(=O)c1ccc(OC)cc1 | – | LC-MS/MS | processed rat plasma, autosampler | 40 ng/mL, 12 h, 4 °C, post-preparative | – | recovery | 98 ± 5.12%
O=C([O-])CN1CCN(CC(=O)[O-])CCN(C(CCC(=O)NCCCCCN(CCCC[C@H](NC(=O)N[C@@H](CCC(=O)O)C(=O)O)C(=O)O)C(=O)c2ccc(I)cc2)C(=O)O)CCN(CC(=O)[O-])CC1.[68Ga+3] (stereo partly shown) | – | PET/CT | human, normal liver | – | – | SUVmean | ~3.1
Cn1c(=O)oc2ccc(-c3ccc(CC(C#N)NC(=O)C4CNCCCO4)c(F)c3)cc21 (stereo not shown) | – | item: blood triglycerides increased | human | 15 mg, treatment-related, single dose, fasted | – | subjects with adverse event | 0%
O=C(O)[C@@H]1C[C@@H](O)CN1C(=O)[C@@H]1CCCN1 | – | potentiometric titration | – | 40 °C, MA3 complex, added: Fe(III) | – | log beta | 30.9
COc1cc(C)c(Cc2ccc(O)cc2)cc1[C@@H]1S[C@H](CO)[C@@H](O)[C@H](O)[C@H]1O | – | – | Japanese T2DM patients, plasma | 2.5 mg luseogliflozin, day 7, once daily | – | AUC(0-τ) | 116 ± 15.3 ng·h/mL
Cn1cnnc1Sc1c2c(c(C#N)c3nc4ccccc4n13)CCCC2 | – | – | C57BL/6 mouse, plasma | intravenous, 0.3 µg/g, 30 min | – | plasma concentration | 1 ng/mL
CC[C@H]1[C@@H](O)[C@@H]2[C@H](CC[C@]3(C)[C@@H]([C@H](C)CCOS(=O)(=O)[O-])CC[C@@H]23)[C@@]2(C)CC[C@@H](O)C[C@@H]12.[Na+] | – | EchoMRI | ob/ob NASH mouse model | oral, 10 mg/kg once daily, 8 weeks | – | whole-body fat mass | 19.3 ± 0.7 g
[64Cu+2].c1cnc(CNCc2ccc(CN3CCCN4CCNCCCN(CC4)CC3)cc2)nc1 | CXCR4 | – | NOD/SCID mouse, U87 and U87-stb-CXCR4 xenografts, spleen | iv, 90 min, no blocking dose, ex vivo | – | tissue uptake | 7.89 ± 0.47 %ID/g
Cc1ccc(OCC(=O)N(Cc2cccs2)c2ccn[nH]2)cc1 | – | – | Sprague-Dawley rat, male, plasma | oral gavage, 30 mg/kg | – | dose-normalised AUC(0-last) | 0.208 ng·h/mL/mg/kg
CCCCC1NC(=O)c2ccccc21 (racemic) | – | – | Wistar rat, both sexes, plasma | oral, 10 mg/kg | – | elimination half-life | 1.29 ± 0.0483 h
CC[C@H](C)[C@H](NC(=O)[C@H](CO)NC(=O)[C@H](CCCNC(=N)N)NC(C)=O)C(=O)N[C@H]1CSSC[C@@H](C(=O)N[C@H](C(=O)NCCOCCOCCOCCOCCOCCOCCOCCOCCC(N)=O)[C@@H](C)O)NC(=O)[C@H](CCCNC(=N)N)NC(=O)[C@H](Cc2c[nH]cn2)NC(=O)[C@H](C)NC(=O)CNC(=O)[C@H](Cc2c[nH]c3ccccc23)NC(=O)[C@H](CC(=O)O)NC(=O)[C@H](CCC(N)=O)NC(=O)[C@H](Cc2c[nH]c3ccccc23)NC(=O)[C@H](C(C)C)NC1=O | – | UV absorbance | PBS | pH 7.4, slope 1 is full solubility | – | apparent solubility slope | 0.92
C#CCOc1ccc(/C=C2\SC(=O)N(CC(=O)NCc3ccccc3)C2=O)cc1 | – | inverse Kirkwood-Buff integrals | binary solvent mixture | concentration not given, 298.15 K, mole fraction x1 0.95 | – | correlation volume | 6000 cm³/mol
